Assay results pooled from the literature.
Protocols differ between the studies behind these lines. ± marks the error that the study gave.
UCHL1: Ubiquitin carboxyl-terminal hydrolase isozyme L1 (UCHL1, Homo sapiens, UniProt P09936)
UniProt P09936, sequence (whole entry, looked up): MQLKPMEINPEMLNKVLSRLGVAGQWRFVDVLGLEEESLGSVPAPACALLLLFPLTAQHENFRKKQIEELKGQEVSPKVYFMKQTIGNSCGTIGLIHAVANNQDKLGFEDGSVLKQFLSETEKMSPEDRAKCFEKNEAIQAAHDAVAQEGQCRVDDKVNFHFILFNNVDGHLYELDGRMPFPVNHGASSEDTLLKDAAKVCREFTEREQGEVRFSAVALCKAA

SMILES | target or system | assay | system | setting | quantity | value
CCOc1cccc(C(=O)Nc2ccc(-c3nc4ccccc4[nH]3)cc2)c1 | – | – | sheep erythrocytes | 1 h, pH 7.5 | maximum haemolysis | 40.6%
Cc1cc(C#N)cc(C)c1Oc1nc(Nc2ccc(C#N)cc2)nc(N)c1Br | – | solvent-shift UV | FaSSIF with 0.1% HPMCAS-M | – | maximum supersaturated concentration | 95 µg/mL
COCCOc1nc(N)c2[nH]c(=O)n(Cc3ccc(C(=O)O)cc3)c2n1 | – | – | – | unconjugated | maximum solubility | 100 µM
CC(C)C(=O)O[C@@H](C)[C@H](O)[C@@H](Cc1ccccc1)C(=O)O | – | – | sterile natural water, irradiated | photolysis product | maximum share of applied radioactivity | 16.2 % AR
CC1CCN(C(=O)CCl)c2cc(C(F)(F)F)ccc2S1 (centres unmarked) | UCHL1 | covalent, intact protein LC-MS | – | 12.5 µM | labelling | 8.82%
Cc1cc(C)c2c(=O)cc(C(=O)Nc3nc4ccc(F)cc4s3)oc2c1 | – | – | sheep erythrocytes | 1 h, pH 7.5 | maximum haemolysis | 2.22%
COc1ccnc(C(=O)N[C@@H](CO)C(=O)O)c1OCOC(=O)C(C)C | – | – | sterile natural water, irradiated | photolysis product | maximum share of applied radioactivity | 77 % AR
Cc1c2oc3c(C)ccc(C(=O)N[C@@H]4C(=O)N[C@H](C(C)C)C(=O)N5CCC[C@H]5C(=O)N(C)CC(=O)N(C)[C@@H](C(C)C)C(=O)O[C@@H]4C)c3nc-2c(C(=O)N[C@@H]2C(=O)N[C@H](C(C)C)C(=O)N3CCC[C@H]3C(=O)N(C)CC(=O)N(C)[C@@H](C(C)C)C(=O)O[C@@H]2C)c(N)c1=O | – | LC-MS | children with cancer, plasma | dose not given, 8 h | maximum plasma concentration | 6.6 µg/L
CC(C)c1nc(CN(C)C(=O)N[C@H](C(=O)N[C@@H](Cc2ccccc2)C[C@H](O)[C@H](Cc2ccccc2)NC(=O)OCc2cncs2)C(C)C)cs1 | – | – | Macaca nemestrina, plasma | intravenous, dose not given, time-averaged | maximum DcNP-dissociated fraction | 13%
Cc1cc(C)cc(NC(=O)CN(C)S(=O)(=O)c2ccc3[nH]c4c(c3c2)CCCC4)c1 | – | – | sheep erythrocytes | 1 h, pH 7.5 | maximum haemolysis | 2.4%
Cc1ccccc1NC(=O)C(C#N)=Cc1cccc2ccccc12 | UCHL1 | covalent, intact protein LC-MS | – | 12.5 µM | labelling | 10.5%
CS(=O)(=O)c1cccc(-c2nnc(NC(=O)c3ccc(-c4ccccc4)cc3)o2)c1 | – | – | sheep erythrocytes | 1 h, pH 7.5 | maximum haemolysis | 4.56%
O=C1CC[C@H](N2Cc3cc(N4CCN(CC5CCN(c6ccc([C@@H]7c8ccc(O)cc8CC[C@@H]7c7ccccc7)cc6)CC5)CC4)ccc3C2=O)C(=O)N1 | – | – | HBSS buffer | – | maximum achievable concentration | 40 µM
C=CC(=O)NC1CCN(c2ncc3ncnc(Nc4ccc(Oc5ccc6c(c5)ncn6C)c(C)c4)c3n2)CC1 | – | – | tiny-TIM gastrointestinal model | 30 mg, fasted state | maximum bioaccessibility | 26 ± 2.7 % recovery
